Assay results from different studies.
Parts stem from different laboratories: compare values within a part only.

Series 1 — method: protein-binding microarray; form: double-stranded DNA, one strand shown; matrix: in vitro; tested at: not given; direction: higher = stronger binding
Target: Protein max, full length (MAX, Homo sapiens, UniProt P61244-2, residues 1-151)
Setting: k-mer, scored over probes, only values ≥0.25
For `CATATGCA`, the E-score was 0.271.
With `AACGTGGG` the E-score was 0.414.
The E-score of `AGCGCATG` is reported as 0.427.
The E-score of `GGGTGGGA` is reported as 0.27.
`GTGCGTGA` has an E-score of 0.33.
`CACCATGG` has an E-score of 0.296.

Series 2 — method: RNA Bind-n-Seq; form: RNA; matrix: in vitro; tested at: 365 nM; reference: no-protein control; direction: higher = stronger binding
Target: RNA binding protein fox-1 homolog 2, RRM domain, GST-SBP tag (RBFOX2, Homo sapiens, UniProt O43251-10, residues 100-194)
Setting: natural RNA segment, single round, ends assumed
`GGGAGUUCUACAGUCCGACGAUCAUCCAAGGACCGCCUGUUCAUAAGCUAUGCUCCAGAGGCUGCCGAUUCACUCGUGUGCACGGAGGGGGUGCUCCAGAUGGGAAUCACACAGGGCUUUCUUCACUCUUGGUUGGAAUUCUCGGGUGCCAA`: “RBNS enrichment (R)” 1.14.
`GGGAGUUCUACAGUCCGACGAUCUAUAUAUAUAUGGAUGUGUGGAUGUAUGUCUUUCUAAUUGAGAGAACCAUCCUAUUCACUGGGUGCCAAGUUUGAGUGAUGAGGGGCUUGGCUUAGAAGUGAGGCUCCCUUGGAAUUCUCGGGUGCCAA` — result for “RBNS enrichment (R)”: 0.606.
`GGGAGUUCUACAGUCCGACGAUCUGCAGCAGCCCAGCUGUGUUUCUCAUUGAUGAUAAUAGUAGGCUCUACUGCCCUCCCCUCCCCUAUCCAAGUAGCAGUUAAGUUCCAUCCAAAUACGUGGGACUCAAAGAUGGAAUUCUCGGGUGCCAA` — result for “RBNS enrichment (R)”: 0.525.
Under “RBNS enrichment (R)”, `GGGAGUUCUACAGUCCGACGAUCCUGUUUCGAAUGGAAGCUUUCUCAGCAGACAAUGUGUGCACAGUAAACUUCAGCAGAGUCCACUUGUUCUCCCGGAAGCUUAAUGUAAUUGAAUGGCAGUUAUCACUAAAUGGAAUUCUCGGGUGCCAA` is recorded as 1.45.

Series 3 — method: protein binding microarray; form: double-stranded DNA, one strand shown; matrix: in vitro; tested at: not given; reference: not given; direction: higher = stronger binding
Target: Histone acetyltransferase KAT6A, winged helix 2, GST fusion (KAT6A, Homo sapiens, UniProt Q92794, residues 85-181)
Setting: 8-mer, flanks averaged, mean of 2 arrays, mostly near background
Residues (chain): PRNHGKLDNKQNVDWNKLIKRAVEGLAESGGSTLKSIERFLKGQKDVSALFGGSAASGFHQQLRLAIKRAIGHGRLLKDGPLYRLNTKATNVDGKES
For `GGTTGAAA`, the E-score was -0.103.
`CTGGGTAC` has an E-score of 0.038.
For `AGTTCACG`, the E-score was -0.00995.
The E-score of `ATAGTGGC` is reported as -0.0553.
For `GGTGACAC`, the E-score was 0.0428.
For `GTGCTATA`, the E-score was 0.0438.

Mixed results
The fold induction of `PhoQ, residues 284 288 289 292 302 303 SLANIV` is reported as 20.8 (PhoP, residues 12 14 15 18 19 NHFIF (Escherichia coli, UniProt P23836); Sort-seq, refers to: YFP reporter; E. coli; PhoQ-PhoP variant library, with: 10 µM Mg2+; reference: high Mg2+ state, higher = stronger signaling).

For quick reference, copied from above (series 3):
For `GGTGACAC`, the E-score was 0.0428.
